{"data": "Measured values of several laboratories", "note": "Numbered parts are unrelated; each lists some results of a single study. Values joined by “and” are separate records of one study, mostly repeats; a detail may differ.", "UniProt O00141, sequence (whole entry, looked up)": "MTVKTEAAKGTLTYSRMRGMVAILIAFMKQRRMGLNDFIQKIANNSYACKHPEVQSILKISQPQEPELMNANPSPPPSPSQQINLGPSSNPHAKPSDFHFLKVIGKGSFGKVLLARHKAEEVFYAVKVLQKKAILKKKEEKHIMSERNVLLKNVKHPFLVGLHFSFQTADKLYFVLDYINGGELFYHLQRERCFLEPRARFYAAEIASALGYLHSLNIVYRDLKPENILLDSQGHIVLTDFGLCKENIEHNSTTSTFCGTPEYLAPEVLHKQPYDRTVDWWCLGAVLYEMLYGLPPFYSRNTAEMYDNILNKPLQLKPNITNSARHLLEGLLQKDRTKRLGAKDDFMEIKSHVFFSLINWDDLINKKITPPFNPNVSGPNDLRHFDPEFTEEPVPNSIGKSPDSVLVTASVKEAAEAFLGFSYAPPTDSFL", "UniProt P22455, sequence (whole entry, looked up)": "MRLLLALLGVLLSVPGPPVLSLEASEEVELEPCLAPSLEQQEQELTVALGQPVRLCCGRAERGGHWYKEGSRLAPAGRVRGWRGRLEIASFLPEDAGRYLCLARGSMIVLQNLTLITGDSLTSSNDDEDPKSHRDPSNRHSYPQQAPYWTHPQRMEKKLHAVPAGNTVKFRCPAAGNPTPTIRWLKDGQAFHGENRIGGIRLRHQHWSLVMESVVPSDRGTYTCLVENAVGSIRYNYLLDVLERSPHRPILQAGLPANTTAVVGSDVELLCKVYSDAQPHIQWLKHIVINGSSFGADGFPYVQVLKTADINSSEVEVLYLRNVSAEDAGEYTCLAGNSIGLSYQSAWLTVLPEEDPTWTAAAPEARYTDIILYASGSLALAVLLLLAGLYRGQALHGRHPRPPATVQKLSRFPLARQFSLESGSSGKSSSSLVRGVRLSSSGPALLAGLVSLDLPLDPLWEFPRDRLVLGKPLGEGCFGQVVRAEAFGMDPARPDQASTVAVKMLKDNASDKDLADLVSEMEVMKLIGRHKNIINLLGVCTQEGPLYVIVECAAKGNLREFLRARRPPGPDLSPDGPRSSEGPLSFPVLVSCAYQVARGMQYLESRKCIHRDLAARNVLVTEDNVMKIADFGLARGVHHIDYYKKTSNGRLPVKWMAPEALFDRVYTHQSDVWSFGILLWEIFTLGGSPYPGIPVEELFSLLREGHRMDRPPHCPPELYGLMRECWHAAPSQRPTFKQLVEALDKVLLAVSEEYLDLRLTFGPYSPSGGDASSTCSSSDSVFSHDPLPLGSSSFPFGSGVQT", "UniProt Q9P1W9, sequence (whole entry, looked up)": "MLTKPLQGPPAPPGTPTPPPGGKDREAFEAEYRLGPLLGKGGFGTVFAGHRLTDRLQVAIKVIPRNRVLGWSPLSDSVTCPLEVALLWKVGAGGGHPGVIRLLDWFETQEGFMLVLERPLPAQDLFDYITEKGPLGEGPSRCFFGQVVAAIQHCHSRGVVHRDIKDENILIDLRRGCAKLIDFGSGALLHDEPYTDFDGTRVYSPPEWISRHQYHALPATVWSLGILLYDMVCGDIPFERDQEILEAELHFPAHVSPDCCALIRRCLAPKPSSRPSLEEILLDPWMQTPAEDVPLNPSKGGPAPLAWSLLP", "UniProt O60285, sequence (whole entry, looked up)": "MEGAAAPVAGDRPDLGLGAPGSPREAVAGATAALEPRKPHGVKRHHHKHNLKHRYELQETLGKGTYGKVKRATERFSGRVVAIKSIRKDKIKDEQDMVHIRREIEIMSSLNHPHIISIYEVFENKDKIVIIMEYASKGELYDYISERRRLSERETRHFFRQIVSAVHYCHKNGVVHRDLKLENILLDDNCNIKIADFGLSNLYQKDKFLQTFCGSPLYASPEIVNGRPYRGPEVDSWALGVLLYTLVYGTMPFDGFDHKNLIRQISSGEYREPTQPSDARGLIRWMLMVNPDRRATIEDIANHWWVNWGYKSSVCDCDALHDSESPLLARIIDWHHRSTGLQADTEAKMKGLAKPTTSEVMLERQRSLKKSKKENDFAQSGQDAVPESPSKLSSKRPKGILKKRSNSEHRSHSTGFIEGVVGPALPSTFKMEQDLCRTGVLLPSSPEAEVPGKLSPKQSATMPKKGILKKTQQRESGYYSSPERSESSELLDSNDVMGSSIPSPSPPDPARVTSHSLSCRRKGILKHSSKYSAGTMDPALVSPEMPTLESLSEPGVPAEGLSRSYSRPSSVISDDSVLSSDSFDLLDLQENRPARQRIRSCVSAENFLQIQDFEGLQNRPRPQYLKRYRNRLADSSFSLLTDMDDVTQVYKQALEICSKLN", "UniProt P29323, sequence (whole entry, looked up)": "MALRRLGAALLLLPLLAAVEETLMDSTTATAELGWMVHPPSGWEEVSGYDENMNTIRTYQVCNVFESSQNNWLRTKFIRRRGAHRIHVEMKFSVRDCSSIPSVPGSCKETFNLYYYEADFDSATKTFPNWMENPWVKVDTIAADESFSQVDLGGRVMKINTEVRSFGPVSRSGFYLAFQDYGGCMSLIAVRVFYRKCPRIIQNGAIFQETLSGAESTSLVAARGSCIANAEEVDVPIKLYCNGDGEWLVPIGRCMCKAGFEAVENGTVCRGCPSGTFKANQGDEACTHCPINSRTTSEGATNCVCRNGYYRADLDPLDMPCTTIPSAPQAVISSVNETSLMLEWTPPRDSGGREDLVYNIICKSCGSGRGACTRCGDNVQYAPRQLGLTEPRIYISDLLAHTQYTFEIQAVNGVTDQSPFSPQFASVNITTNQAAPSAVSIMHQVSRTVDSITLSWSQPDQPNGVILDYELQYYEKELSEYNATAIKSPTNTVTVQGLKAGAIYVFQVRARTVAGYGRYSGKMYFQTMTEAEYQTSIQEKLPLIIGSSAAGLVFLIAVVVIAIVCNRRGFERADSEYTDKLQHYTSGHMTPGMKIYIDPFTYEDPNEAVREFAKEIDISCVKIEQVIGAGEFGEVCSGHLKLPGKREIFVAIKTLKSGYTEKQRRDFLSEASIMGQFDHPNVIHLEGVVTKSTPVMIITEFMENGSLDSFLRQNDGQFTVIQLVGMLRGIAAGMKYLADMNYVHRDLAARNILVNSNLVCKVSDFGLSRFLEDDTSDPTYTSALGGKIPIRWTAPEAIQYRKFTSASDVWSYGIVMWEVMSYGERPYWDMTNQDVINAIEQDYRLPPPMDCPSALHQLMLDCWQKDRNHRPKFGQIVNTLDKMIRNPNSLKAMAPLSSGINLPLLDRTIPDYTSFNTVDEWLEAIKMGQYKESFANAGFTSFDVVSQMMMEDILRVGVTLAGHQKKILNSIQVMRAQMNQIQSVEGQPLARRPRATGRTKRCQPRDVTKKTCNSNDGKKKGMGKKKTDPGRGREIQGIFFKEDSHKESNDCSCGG", "UniProt Q13177, sequence (whole entry, looked up)": "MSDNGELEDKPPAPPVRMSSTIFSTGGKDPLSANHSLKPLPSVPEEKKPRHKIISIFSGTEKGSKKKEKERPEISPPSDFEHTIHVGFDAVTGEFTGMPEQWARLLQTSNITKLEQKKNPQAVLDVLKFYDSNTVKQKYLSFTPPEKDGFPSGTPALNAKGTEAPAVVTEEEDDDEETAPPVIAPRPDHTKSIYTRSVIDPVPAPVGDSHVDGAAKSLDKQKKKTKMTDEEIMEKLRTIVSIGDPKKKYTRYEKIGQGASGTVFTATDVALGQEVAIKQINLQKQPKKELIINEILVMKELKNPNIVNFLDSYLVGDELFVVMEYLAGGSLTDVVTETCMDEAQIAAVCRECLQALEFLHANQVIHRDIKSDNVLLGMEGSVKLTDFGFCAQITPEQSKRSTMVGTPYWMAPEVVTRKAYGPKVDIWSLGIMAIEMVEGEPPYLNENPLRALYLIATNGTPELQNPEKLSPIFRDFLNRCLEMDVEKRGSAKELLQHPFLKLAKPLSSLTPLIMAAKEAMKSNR", "UniProt P23443, sequence (whole entry, looked up)": "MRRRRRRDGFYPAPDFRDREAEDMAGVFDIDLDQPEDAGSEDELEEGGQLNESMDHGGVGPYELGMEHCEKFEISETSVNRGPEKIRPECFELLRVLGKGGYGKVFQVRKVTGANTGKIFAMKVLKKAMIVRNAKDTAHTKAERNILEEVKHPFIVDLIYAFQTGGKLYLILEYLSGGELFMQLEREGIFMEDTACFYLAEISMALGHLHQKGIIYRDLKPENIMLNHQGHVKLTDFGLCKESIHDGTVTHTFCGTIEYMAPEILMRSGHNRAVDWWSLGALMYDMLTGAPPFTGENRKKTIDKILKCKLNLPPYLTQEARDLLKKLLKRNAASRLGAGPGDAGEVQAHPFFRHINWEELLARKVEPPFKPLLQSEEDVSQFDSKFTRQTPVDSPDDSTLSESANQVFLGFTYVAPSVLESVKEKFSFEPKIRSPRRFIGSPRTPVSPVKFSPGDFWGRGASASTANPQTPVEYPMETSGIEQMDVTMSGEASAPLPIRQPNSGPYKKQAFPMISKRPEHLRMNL"}
{"data": "Sample 1", "Structure (SMILES)": "CC(=O)N[C@@H](Cc1c[nH]c2ccccc12)C(=O)N[C@@H](CCC(=O)C=[N+]=[N-])C(=O)OC(C)C", "species": "C57BL/6 CES1-/- mice, EL4 tumour", "route": "subcutaneous", "dose": "0.3 mg/kg/day DON equivalent", "time": "5 days"}
{"test": "LC-MS/MS metabolomics, item: maltotriose", "test system": "EL4 tumour", "scale": "higher = more metabolite", "metabolite peak intensity": "1.37e+06 a.u. and 1.46e+07 a.u. and 2.74e+06 a.u. and 652000 a.u. and 4.16e+06 a.u. and 1.62e+06 a.u."}
{"test": "UPLC-MS/MS metabolomics, item: N-acetylneuraminate", "test system": "EL4 tumour", "conditions": "normalised to tissue mass", "scale": "higher = more metabolite", "metabolite peak intensity": "9.03e+06 a.u. and 6.24e+06 a.u. and 5.74e+06 a.u. and 7.52e+06 a.u. and 7.72e+06 a.u. and 9.7e+06 a.u."}
{"test": "UPLC-MS/MS, item: N1-acetylspermidine", "test system": "EL4 tumour", "metabolite peak intensity": "1.13e+07 a.u. and 1.26e+07 a.u. and 1.83e+07 a.u. and 1.54e+07 a.u. and 6.75e+06 a.u. and 1.58e+07 a.u."}
{"test": "UPLC-MS/MS, item: 5-methyl-2'-deoxycytidine", "test system": "EL4 tumour", "metabolite peak intensity": "1.46e+06 a.u. and 2.23e+06 a.u. and 2.29e+06 a.u. and 2.5e+06 a.u. and 4.19e+06 a.u. and 1.54e+06 a.u."}
{"test": "UPLC-MS/MS, item: 4-imidazoleacetate", "test system": "EL4 tumour", "metabolite peak intensity": "1.76e+06 a.u. and 1.55e+06 a.u. and 1.2e+06 a.u. and 1.46e+06 a.u. and 1.93e+06 a.u. and 1.63e+06 a.u."}
{"test": "UPLC-MS/MS, item: histamine", "test system": "EL4, tumour", "conditions": "normalised to tissue mass", "scale": "higher = more metabolite", "metabolite peak intensity": "1.63e+07 a.u. and 3.77e+07 a.u. and 1.79e+07 a.u. and 4.83e+06 a.u. and 2.3e+07 a.u. and 5.98e+06 a.u."}
{"test": "LC-MS/MS metabolomics, item: 3-methoxytyrosine", "test system": "EL4 tumour", "conditions": "normalised to tissue mass", "scale": "higher = more metabolite", "metabolite peak intensity": "80800 a.u. and 189000 a.u. and 53300 a.u. and 182000 a.u. and 246000 a.u."}
{"data": "Sample 2", "Structure (SMILES)": "COc1cc2ncnc(N3CCN(C(=O)Nc4ccc(Oc5ccccc5)cc4)CC3)c2cc1OC", "read-out": "enzyme activity", "action": "inhibitor", "tested at": "0.5 µM", "baseline": "control"}
{"target": "FLT3 (Homo sapiens, UniProt P36888)", "remaining activity [%]": 43.2}
{"target": "MYLK (Homo sapiens, UniProt Q15746)", "remaining activity [%]": 101}
{"target": "PRKCE (Homo sapiens, UniProt Q02156)", "remaining activity [%]": 106}
{"target": "CSK (Homo sapiens, UniProt P41240)", "remaining activity [%]": 81.3}
{"target": "GRK6 (Homo sapiens, UniProt P43250)", "remaining activity [%]": 96.4}
{"target": "SRPK3 (Homo sapiens, UniProt Q9UPE1)", "remaining activity [%]": 97.3}
{"target": "PIM2 (Homo sapiens, UniProt Q9P1W9)", "remaining activity [%]": 101}
{"target": "BMX (Homo sapiens, UniProt P51813)", "remaining activity [%]": 90.9}
{"target": "PRKCG (Homo sapiens, UniProt P05129)", "remaining activity [%]": 104}
{"target": "RPS6KA1 (Homo sapiens, UniProt Q15418)", "remaining activity [%]": 82}
{"target": "GRK2 (Homo sapiens, UniProt P25098)", "remaining activity [%]": 96.7}
{"target": "SGK1 (Homo sapiens, UniProt O00141)", "remaining activity [%]": 99.8}
{"target": "PAK2 (Homo sapiens, UniProt Q13177)", "remaining activity [%]": 104}
{"target": "RPS6KB1 (Homo sapiens, UniProt P23443)", "remaining activity [%]": 89.4}
{"target": "EPHA7 (Homo sapiens, UniProt Q15375)", "remaining activity [%]": 96.8}
{"target": "CSF1R (Homo sapiens, UniProt P07333)", "remaining activity [%]": 67.2}
{"target": "FGFR4 (Homo sapiens, UniProt P22455)", "remaining activity [%]": 99.7}
{"target": "GSK3A (Homo sapiens, UniProt P49840)", "remaining activity [%]": 95.8}
{"target": "NUAK1 (Homo sapiens, UniProt O60285)", "remaining activity [%]": 88.8}
{"target": "EPHB2 (Homo sapiens, UniProt P29323)", "remaining activity [%]": 98.2}
{"target": "Aurora kinase C (AURKC, Homo sapiens, UniProt Q9UQB9)", "remaining activity [%]": 90.3}
{"data": "Sample 3", "SMILES": "COc1cc(C(=O)N2CCC(N3CCN(C)CC3)CC2)ccc1Nc1ncc2c(n1)N(C)c1ccccc1C(=O)N2C", "method": "KINOMEscan", "tested at": "10 µM", "baseline": "DMSO control", "reading": "lower = stronger binding"}
{"target": "EPHA3", "binding [%]": 100}
{"target": "MAK", "binding [%]": 72}
{"target": "PDPK1", "binding [%]": 100}
{"target": "IRAK1", "binding [%]": 100}
{"target": "PYK2", "binding [%]": 78}
{"target": "PIP5K1C", "binding [%]": 96}
{"target": "FGFR3", "binding [%]": 80}
{"target": "PRKCD", "binding [%]": 75}
{"target": "BTK", "binding [%]": 100}
{"target": "MEK2", "binding [%]": 99}
{"target": "TLK1", "binding [%]": 100}
{"data": "Mixed results", "tested at": "10 µM"}
{"SMILES": "NCCCC(O)(P(=O)(O)O)P(=O)(O)O", "target or system": "Plasmodium berghei", "test system": "Huh-7, GFP-expressing", "conditions": "24 h, liver stage", "measurement": "inhibition", "value": "32%"}
{"SMILES": "Cn1cncc1[C@@](O)(COc1ccc(C#N)cc1-c1ccc(OC(F)(F)F)cc1)c1ccc(C#N)cc1", "target or system": "HEK293T", "test": "high-content imaging", "conditions": "0 h, 1 normal, negative death, unit not given", "scale": "baseline: untreated growth", "measurement": "GR value", "value": 0}
{"SMILES": "OCCOCCN1CCN(C2=Nc3ccccc3Sc3ccccc32)CC1", "target or system": "Plasmodium berghei", "test system": "Huh-7, GFP-expressing", "conditions": "24 h, liver stage", "measurement": "inhibition", "value": "77.3%"}
